{"data": "Results gathered from unrelated publications", "note": "Every numbered part comes from another study and shows a few of its results, in no order."}
{"data": "Sample 1", "target": "Sal-like protein 4, full length isoform A (SALL4, Homo sapiens, UniProt Q9UJQ4, residues 1-1053)", "technique": "universal PBM", "form": "double-stranded DNA, one strand shown", "sample": "in vitro", "concentration": "600 nM", "setting": "8-mer, flanks averaged, mean of replicates", "reading": "higher = stronger binding", "UniProt Q9UJQ4, sequence (whole entry, looked up)": "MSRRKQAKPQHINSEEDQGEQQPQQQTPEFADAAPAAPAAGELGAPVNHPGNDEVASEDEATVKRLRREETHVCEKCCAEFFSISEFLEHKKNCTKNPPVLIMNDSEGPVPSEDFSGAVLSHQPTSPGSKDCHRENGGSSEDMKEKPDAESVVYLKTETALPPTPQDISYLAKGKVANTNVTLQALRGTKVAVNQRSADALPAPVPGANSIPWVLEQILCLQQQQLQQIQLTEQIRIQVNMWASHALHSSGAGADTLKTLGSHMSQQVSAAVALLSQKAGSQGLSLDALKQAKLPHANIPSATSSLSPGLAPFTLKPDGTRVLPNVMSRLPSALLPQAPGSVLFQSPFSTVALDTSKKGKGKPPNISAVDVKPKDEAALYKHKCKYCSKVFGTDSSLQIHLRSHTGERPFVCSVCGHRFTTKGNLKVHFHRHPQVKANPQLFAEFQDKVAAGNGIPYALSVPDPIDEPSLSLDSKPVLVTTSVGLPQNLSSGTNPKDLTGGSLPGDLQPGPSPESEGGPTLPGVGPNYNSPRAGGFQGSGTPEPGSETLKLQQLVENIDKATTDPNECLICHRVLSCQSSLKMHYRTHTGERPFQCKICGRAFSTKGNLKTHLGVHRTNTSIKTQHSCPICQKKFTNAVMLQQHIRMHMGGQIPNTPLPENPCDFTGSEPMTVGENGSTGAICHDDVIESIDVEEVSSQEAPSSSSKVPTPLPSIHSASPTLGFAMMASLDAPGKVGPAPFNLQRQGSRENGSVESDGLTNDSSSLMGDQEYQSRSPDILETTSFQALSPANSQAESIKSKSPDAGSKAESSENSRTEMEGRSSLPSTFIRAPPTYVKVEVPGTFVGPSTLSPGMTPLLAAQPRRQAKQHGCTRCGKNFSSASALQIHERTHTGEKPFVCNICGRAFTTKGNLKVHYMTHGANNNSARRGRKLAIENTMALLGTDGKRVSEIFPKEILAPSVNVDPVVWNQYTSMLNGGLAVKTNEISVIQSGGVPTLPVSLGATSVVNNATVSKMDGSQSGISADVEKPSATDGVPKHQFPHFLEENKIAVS"}
{"Sequence": "CATTATTA", "E-score": 0.39}
{"Sequence": "ACCCCAGA", "E-score": -0.236}
{"Sequence": "GGTATCTA", "E-score": 0.183}
{"Sequence": "CAAACAGA", "E-score": 0.0135}
{"data": "Sample 2", "target": "Interferon regulatory factor 5, full length, phosphomimetic (IRF5, Homo sapiens, UniProt Q13568-2, residues 1-514, S451D/S453D/S456D/S462D)", "technique": "protein-binding microarray", "form": "double-stranded DNA, one strand shown", "sample": "in vitro", "concentration": "940 nM top", "setting": "60-bp whole probe", "together with": "salmon DNA 0.4 mg/ml", "baseline": "random background probes", "reading": "higher = stronger binding"}
{"Sequence": "GCCTAGCACTTAGGTTTCGGTCTCGGTTTGTGCTAGGTCTTGATTCGCTTGACGCTGCTG", "fitted relative affinity [z-score]": 15.7}
{"Sequence": "GCCTAGCACGACGATTCCAGTGTCGAGACGTGCTAGGTCTTGATTCGCTTGACGCTGCTG", "fitted relative affinity [z-score]": -0.0363}
{"Sequence": "GCCTAGCACTTAGAACTGAGTCTCGGTTAGTGCTAGGTCTTGATTCGCTTGACGCTGCTG", "fitted relative affinity [z-score]": 3.26}
{"data": "Sample 3", "target": "Histone acetyltransferase KAT6A, winged helix 2, GST fusion (KAT6A, Homo sapiens, UniProt Q92794, residues 85-181)", "technique": "protein binding microarray", "form": "double-stranded DNA, one strand shown", "sample": "in vitro", "concentration": "not given", "setting": "8-mer, flanks averaged, mean of 2 arrays, mostly near background", "baseline": "not given", "reading": "higher = stronger binding", "Target sequence (chain)": "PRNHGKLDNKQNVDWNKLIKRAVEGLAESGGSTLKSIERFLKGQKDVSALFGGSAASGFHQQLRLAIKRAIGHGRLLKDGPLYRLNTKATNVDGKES"}
{"Sequence": "CGTGGCTC", "E-score": -0.00596}
{"Sequence": "GCTGTTCA", "E-score": 0.107}
{"Sequence": "AGGGTACG", "E-score": -0.0131}
{"Sequence": "CTGGCGCA", "E-score": 0.124}
{"data": "Further values, each from its own experiment"}
{"Substance": "PhoQ, residues 284 288 289 292 302 303 SSCLAV", "target": "PhoP, residues 12 14 15 18 19 LHTVM (Escherichia coli, UniProt P23836)", "test": "Sort-seq, item: YFP reporter", "test system": "E. coli", "conditions": "PhoQ-PhoP variant library, together with: 10 µM Mg2+", "scale": "baseline: high Mg2+ state, higher = stronger signaling", "endpoint": "fold induction", "result": 7.38}
{"note": "Some of these lines once more (sample 1):"}
{"Sequence": "ACCCCAGA", "E-score": -0.236}
{"Sequence": "GGTATCTA", "E-score": 0.183}
